Published values gathered from unrelated publications.
Compare with care: the assays were run in different laboratories. ± gives the spread as reported. ≈ marks a conversion by molar mass, not a printed value.

The chains behind the UniProt entries cited, without tags or fusion partners.
UniProt P54762, whole entry, looked up: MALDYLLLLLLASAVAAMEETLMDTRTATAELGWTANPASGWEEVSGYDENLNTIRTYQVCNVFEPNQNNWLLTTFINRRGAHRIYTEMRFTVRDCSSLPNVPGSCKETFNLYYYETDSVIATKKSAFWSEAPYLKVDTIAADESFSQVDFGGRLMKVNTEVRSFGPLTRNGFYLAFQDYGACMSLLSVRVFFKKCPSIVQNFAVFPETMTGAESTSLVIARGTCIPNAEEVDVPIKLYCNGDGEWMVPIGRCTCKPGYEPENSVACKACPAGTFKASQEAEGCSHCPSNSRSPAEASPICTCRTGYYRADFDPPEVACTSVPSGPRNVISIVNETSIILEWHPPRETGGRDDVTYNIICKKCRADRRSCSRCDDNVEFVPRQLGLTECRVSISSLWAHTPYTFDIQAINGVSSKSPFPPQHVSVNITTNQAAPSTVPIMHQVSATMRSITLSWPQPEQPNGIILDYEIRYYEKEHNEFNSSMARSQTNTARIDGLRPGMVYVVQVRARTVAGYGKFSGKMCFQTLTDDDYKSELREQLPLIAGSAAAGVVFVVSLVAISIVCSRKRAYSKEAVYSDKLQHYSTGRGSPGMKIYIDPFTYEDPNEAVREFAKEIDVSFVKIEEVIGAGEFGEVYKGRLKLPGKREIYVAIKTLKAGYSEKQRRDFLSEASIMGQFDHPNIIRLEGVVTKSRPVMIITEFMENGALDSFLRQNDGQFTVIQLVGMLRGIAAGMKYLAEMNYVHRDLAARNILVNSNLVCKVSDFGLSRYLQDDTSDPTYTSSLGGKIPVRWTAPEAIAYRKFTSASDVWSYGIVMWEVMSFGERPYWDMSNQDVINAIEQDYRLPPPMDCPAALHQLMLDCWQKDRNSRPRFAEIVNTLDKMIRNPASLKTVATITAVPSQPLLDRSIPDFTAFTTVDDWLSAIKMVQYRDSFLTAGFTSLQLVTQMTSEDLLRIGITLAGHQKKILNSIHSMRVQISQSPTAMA
UniProt Q9UK32, whole entry: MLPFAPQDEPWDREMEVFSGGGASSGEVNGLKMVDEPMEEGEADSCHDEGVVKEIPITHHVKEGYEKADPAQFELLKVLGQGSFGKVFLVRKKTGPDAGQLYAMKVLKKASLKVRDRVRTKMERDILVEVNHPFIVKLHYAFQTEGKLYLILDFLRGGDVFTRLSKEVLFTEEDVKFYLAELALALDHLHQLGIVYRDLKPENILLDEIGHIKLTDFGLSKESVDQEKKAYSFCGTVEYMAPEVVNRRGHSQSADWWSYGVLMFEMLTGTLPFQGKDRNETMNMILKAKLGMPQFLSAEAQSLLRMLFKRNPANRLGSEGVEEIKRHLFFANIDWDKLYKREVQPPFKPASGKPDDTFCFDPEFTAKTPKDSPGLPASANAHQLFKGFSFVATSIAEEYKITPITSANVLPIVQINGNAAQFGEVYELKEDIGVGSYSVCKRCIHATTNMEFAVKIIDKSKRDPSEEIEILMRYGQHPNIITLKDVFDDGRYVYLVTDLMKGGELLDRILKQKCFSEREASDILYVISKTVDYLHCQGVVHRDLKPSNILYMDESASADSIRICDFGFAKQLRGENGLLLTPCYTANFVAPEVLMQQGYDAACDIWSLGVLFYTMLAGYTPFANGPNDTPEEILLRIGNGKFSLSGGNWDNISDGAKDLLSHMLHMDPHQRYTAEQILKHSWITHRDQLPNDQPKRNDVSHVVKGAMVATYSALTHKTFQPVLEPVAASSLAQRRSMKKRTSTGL

O=[N+]([O-])c1ccc(N2CCN(c3ccc([N+](=O)[O-])cc3[N+](=O)[O-])CC2)c([N+](=O)[O-])c1  MIC (Candida albicans; clinical isolate): > 500 µg/mL
CC(C)COc1ccc2nc3ccc(=O)cc-3oc2c1  MIC90 (Mycobacterium tuberculosis; mc2 6206 PA-824-resistant ddn mutant; 7 days): 8.4 µM (≈ 2.26 µg/mL)
CCC(C)C1NC(=O)/C(=C(/C)O)C1=O (centres unmarked)  apoplastic pH increase (Arabidopsis thaliana; apo-pHusion EGFP/mRFP1 ratio; elongating root cells; 10 µM): 0.1
Nc1ccc(C(=O)O)c(O)c1  MIC50 (Mycobacterium bovis; BCG Tac^r7.2, thyA W133S missense; TA-C-resistant thyA mutant): > 100 µM
O=c1ccc2nc3ccc(OCc4ccc([N+](=O)[O-])s4)cc3oc-2c1  MIC90 (Mycobacterium tuberculosis; mc2 6206, fbiC mutant, clofazimine-resistant): inactive
CC#C/C(=N\OC[C@H]1COCCN1)c1ccc2ncnc(Nc3ccc(OCc4cccc(F)c4)c(Cl)c3)c2c1  inhibition (EPHB1 (Homo sapiens, UniProt P54762); kinase activity; 10 µM): 0.5%
O=C(O)COc1ccc2nc3ccc(=O)cc-3oc2c1  MIC90 (Mycobacterium tuberculosis; mc2 6206 PA-824-resistant ddn mutant; 7 days): > 256 µM
CC1(C)CCC(Cc2cc(O)c(-c3ccccc3)c(=O)[nH]2)CC1  resistance mutation frequency (Mycobacterium tuberculosis; H37Rv; concentration not given): 1e-08 per cell
CO[C@H]1/C=C/O[C@@]2(C)Oc3c(C)c(O)c4c(O)c(c(/C=N/N5CCN(C)CC5)c(O)c4c3C2=O)NC(=O)/C(C)=C\C=C\[C@H](C)[C@H](O)[C@@H](C)[C@@H](O)[C@@H](C)[C@H](OC(C)=O)[C@@H]1C  MIC50 (Mycobacterium bovis; BCG Tac^r10.1, thyA mutant; TA-C-resistant thyA mutant): 0.0016 µM (≈ 0.00132 µg/mL)
Cc1cc2c(c(=S)[nH]1)C(=O)O/C2=C\c1c[nH]c2ccc(F)cc12  EC50 (Influenza B virus; viral replication, CPE, MTT; MDCK, B/Lee/40; 72 h): 21.1 ± 9.73 µM
O=[N+]([O-])c1cn2c(n1)OC[C@@H](OCc1ccc(OC(F)(F)F)cc1)C2  MIC50 (Mycobacterium bovis; BCG Tac^r7.2, thyA W133S missense; TA-C-resistant thyA mutant): 0.2 µM (≈ 0.0719 µg/mL)
CCN1CCN(Cc2ccc(NC(=O)c3ccc(C)c(/C=C/c4cnc5[nH]ccc5c4OC)c3)cc2C(F)(F)F)CC1  log2 fold change (RPS6KA6 (Homo sapiens, UniProt Q9UK32); inhibitor, cell-based kinome screen; 5 µM; baseline: vehicle): 0.217
COCCOc1ccc2nc3ccc(=O)c(Cl)c-3oc2c1  MIC90 (Mycobacterium tuberculosis; mc2 6206 PA-824-resistant ddn mutant; 7 days): 9.7 µM (≈ 2.97 µg/mL)
NNC(=O)c1ccncc1  MIC50 (Mycobacterium bovis; BCG Tac^r7.2, thyA W133S missense; TA-C-resistant thyA mutant): 0.4 µM (≈ 0.0549 µg/mL)

Repeated from above:
CCC(C)C1NC(=O)/C(=C(/C)O)C1=O (centres unmarked)  apoplastic pH increase (Arabidopsis thaliana; apo-pHusion EGFP/mRFP1 ratio; elongating root cells; 10 µM): 0.1
